Measurements pooled from the literature.
Compare with care: the assays were run in different laboratories. ± gives the spread as reported.
FGFR1: Fibroblast growth factor receptor 1 (FGFR1, Homo sapiens, UniProt P11362)
UniProt P11362, sequence (whole entry, looked up): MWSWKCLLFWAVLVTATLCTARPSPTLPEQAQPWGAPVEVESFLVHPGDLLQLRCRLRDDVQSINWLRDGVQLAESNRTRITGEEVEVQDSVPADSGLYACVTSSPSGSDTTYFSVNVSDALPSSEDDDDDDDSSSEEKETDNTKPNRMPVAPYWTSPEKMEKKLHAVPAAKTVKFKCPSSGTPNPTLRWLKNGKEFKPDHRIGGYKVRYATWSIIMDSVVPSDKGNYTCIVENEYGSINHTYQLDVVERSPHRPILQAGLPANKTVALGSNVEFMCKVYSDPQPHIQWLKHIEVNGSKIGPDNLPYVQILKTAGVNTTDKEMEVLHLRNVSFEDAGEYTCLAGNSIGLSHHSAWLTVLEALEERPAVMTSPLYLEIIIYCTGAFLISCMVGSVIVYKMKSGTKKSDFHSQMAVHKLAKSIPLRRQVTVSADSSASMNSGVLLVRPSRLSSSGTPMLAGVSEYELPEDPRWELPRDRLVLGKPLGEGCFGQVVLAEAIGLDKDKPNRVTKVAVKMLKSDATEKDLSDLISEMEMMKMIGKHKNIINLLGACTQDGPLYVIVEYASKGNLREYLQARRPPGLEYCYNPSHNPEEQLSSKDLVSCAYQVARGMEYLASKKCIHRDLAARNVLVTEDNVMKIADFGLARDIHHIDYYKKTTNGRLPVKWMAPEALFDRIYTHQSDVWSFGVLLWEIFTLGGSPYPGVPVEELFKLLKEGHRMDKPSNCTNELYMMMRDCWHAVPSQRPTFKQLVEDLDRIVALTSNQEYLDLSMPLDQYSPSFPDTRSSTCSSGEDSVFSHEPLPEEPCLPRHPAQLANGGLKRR
lecB: Fucose-binding lectin PA-IIL (lecB, Pseudomonas aeruginosa, UniProt Q9HYN5)
UniProt Q9UER7, sequence (55-144, looked up): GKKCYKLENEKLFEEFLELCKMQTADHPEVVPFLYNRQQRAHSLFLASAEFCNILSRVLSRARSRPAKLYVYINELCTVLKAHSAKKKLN
UniProt Q95460, sequence (whole entry, looked up): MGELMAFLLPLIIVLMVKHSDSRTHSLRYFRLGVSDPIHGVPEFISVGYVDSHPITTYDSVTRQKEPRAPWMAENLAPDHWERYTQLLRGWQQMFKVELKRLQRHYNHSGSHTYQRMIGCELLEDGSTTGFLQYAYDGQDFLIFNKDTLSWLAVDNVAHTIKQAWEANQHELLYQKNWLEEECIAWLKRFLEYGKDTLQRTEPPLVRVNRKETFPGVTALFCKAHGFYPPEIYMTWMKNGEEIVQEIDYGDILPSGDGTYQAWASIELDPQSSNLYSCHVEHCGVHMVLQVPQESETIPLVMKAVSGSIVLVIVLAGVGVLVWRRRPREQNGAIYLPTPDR
UniProt Q9ESK4, sequence (whole entry, looked up): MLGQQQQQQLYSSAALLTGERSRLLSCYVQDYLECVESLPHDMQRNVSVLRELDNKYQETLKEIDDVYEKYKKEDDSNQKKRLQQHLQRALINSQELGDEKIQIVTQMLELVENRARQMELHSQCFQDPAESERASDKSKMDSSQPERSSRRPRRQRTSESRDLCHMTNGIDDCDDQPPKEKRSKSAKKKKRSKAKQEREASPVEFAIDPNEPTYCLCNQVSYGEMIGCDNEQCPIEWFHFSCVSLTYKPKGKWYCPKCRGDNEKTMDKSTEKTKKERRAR
UniProt Q06911, sequence (whole entry, looked up): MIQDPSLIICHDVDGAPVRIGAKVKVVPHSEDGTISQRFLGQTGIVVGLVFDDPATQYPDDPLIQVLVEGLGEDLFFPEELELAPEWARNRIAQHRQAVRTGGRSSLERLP
UniProt Q07817, sequence (whole entry, unmodified, looked up): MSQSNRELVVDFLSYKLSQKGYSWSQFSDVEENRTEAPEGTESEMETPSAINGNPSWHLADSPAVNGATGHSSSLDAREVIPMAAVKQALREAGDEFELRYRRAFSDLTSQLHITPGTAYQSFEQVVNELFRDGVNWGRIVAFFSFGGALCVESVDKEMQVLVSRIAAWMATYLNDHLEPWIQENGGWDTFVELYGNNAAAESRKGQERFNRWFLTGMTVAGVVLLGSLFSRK
UniProt P17931, sequence (whole entry, looked up): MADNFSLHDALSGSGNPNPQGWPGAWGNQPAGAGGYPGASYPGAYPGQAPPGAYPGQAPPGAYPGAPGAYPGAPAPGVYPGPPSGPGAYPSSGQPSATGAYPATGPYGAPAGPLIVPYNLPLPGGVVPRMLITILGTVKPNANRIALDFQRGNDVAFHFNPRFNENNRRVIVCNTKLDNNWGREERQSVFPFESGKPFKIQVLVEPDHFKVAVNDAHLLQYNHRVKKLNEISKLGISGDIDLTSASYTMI
UniProt P09104, sequence (whole entry, looked up): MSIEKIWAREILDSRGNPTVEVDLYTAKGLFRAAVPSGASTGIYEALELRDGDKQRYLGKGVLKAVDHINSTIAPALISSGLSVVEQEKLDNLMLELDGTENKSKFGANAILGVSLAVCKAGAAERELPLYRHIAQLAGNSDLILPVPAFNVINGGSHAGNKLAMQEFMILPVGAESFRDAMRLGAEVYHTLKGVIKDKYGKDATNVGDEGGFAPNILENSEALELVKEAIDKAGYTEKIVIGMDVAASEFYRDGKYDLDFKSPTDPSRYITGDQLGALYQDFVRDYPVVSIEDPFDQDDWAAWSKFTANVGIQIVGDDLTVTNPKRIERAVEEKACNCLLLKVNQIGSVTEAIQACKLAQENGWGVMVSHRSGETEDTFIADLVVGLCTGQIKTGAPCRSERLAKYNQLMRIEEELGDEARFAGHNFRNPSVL
UniProt Q9Y657, sequence (whole entry, looked up): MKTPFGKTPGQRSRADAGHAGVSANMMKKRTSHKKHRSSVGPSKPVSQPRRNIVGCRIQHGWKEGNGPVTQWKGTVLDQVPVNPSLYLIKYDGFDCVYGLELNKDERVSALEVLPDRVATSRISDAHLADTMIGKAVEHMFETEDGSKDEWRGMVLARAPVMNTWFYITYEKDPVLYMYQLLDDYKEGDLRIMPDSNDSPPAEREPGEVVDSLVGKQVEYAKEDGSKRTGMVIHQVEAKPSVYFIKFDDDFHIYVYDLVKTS
UniProt P31948, sequence (whole entry, looked up): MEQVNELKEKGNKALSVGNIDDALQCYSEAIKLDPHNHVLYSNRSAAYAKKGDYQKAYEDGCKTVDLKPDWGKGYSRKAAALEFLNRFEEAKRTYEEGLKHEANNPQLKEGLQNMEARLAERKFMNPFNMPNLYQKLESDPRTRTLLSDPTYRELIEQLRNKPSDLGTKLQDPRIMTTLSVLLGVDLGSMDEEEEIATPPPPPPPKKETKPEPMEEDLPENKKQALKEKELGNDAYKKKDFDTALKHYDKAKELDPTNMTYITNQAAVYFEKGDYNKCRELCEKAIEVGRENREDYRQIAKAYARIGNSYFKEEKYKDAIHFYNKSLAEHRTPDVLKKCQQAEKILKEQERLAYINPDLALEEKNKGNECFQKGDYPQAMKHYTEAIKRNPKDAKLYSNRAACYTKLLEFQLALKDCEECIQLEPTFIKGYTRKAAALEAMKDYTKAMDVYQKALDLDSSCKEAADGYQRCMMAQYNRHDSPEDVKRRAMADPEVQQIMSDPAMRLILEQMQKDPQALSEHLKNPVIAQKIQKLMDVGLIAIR
UniProt P07237, sequence (whole entry, looked up): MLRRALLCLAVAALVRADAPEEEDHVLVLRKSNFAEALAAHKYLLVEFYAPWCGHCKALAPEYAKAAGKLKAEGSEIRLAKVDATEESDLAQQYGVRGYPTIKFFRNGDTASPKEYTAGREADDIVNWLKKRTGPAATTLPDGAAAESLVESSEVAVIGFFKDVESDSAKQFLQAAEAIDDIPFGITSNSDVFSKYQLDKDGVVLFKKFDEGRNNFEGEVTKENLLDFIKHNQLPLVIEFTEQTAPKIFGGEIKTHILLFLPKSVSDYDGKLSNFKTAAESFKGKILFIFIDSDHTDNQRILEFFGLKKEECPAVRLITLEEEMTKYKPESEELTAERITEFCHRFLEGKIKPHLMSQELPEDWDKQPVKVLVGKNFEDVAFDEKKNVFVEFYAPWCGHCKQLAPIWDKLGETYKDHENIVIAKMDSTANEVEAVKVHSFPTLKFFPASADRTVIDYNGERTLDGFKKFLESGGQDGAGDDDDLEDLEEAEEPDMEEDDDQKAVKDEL

SMILES	target	assay	conditions	Kd
N=C(N)NCCC[C@H](NC(=O)[C@H](CS)NC(=O)[C@H](Cc1ccc(O)cc1)NC(=O)[C@H](Cc1c[nH]c2ccccc12)NC(=O)[C@H](CCCNC(=N)N)NC(=O)[C@H](Cc1c[nH]c2ccccc12)NC(=O)[C@H](Cc1c[nH]cn1)NC(=O)CNC(=O)CN)C(=O)NCC(=O)NCC(=O)N[C@@H](CCCCN)C(N)=O	HCV IIB RNA	fluorescein-labelled RNA titration	1 mM TCEP	8800 ± 800 nM
C[C@H](N)C(=O)N[C@@H](CCCNC(=N)N)C(=O)N[C@H](C(=O)N[C@@H](CCCC[N+](C)(C)C)C(=O)N[C@@H](CCC(N)=O)C(=O)N[C@H](C(=O)N[C@@H](C)C(=O)N[C@@H](CCCNC(=N)N)C(=O)N[C@@H](CCCCN)C(=O)N[C@@H](CO)C(=O)N[C@H](C(=O)NCC(N)=O)[C@@H](C)O)[C@@H](C)OP(=O)(O)O)[C@@H](C)O	Inhibitor of growth protein 2, PHD finger (Ing2, Mus musculus, UniProt Q9ESK4)	binding, isothermal titration calorimetry	pH 7.2	19900 nM
CC(=O)N[C@@H](CCCCN)C(=O)N[C@H](C(=O)NCC(=O)N[C@@H](CC(=O)O)C(=O)N[C@@H](CCC(=O)O)C(=O)N[C@@H](CCCCN)C(=O)N[C@@H](CCCCN)C(=O)NCC(=O)NCC(=O)N[C@@H](Cc1ccc(O)cc1)C(=O)NCC(=O)N[C@@H](CCCNC(=N)N)C(=O)N[C@@H](CCCCN)C(=O)N[C@@H](CCCCN)C(=O)N[C@@H](CCCNC(=N)N)C(=O)N[C@@H](CCCNC(=N)N)C(=O)N[C@@H](CCC(N)=O)C(=O)N[C@@H](CCCNC(=N)N)C(=O)N[C@@H](CCCNC(=N)N)C(=O)N[C@@H](CCCNC(=N)N)C(N)=O)[C@@H](C)O	HSP90AA1 (Homo sapiens, UniProt P07900)	binding, field-effect biosensor	pH 7.4	342000 ± 25300 nM
CC(=O)N[C@H]1C(O)O[C@H](CO)[C@@H](O[C@@H]2O[C@H](CO)[C@H](O)[C@H](O)[C@H]2O)[C@@H]1O (stereo partly shown)	Galectin-3 (LGALS3, Homo sapiens, UniProt P17931)	isothermal titration calorimetry	–	30000 nM
CC(=O)/C=C/c1c(CCCC(=O)NCC(=O)NCc2cn(CCCNC(=O)c3ccc4c(c3)C(=O)OC43c4ccc(N(C)C)cc4Oc4cc(N(C)C)ccc43)nn2)[nH]c(=O)[nH]c1=O	Major histocompatibility complex class I-related protein 1 (MR1, Homo sapiens, UniProt Q95460)	binding, fluorescence polarization	apo protein	20 nM
CC[C@H](C)[C@H](NC(=O)[C@@H]1CSCc2cccc(c2)CSC[C@H](NC(=O)[C@@H](NC(=O)[C@H](Cc2ccc(O)cc2)NC(=O)[C@H](CO)NC(=O)[C@H](Cc2ccccc2)NC(=O)[C@H](CCSC)NC(C)=O)C(C)C)C(=O)N[C@@H]([C@@H](C)O)C(=O)N[C@@H](CC(C)C)C(=O)N[C@@H](CCCCN)C(=O)N[C@@H](CO)C(=O)N1)C(=O)N[C@@H](C)C(=O)N[C@@H](CCSC)C(=O)N[C@@H](Cc1c[nH]cn1)C(=O)NCC(=O)N[C@@H](CO)C(=O)NCC(=O)N[C@@H](CO)C(=O)NCC(=O)N[C@@H](CO)C(=O)N[C@@H](CC(=O)O)C(=O)N[C@@H](Cc1ccc(O)cc1)C(=O)N[C@@H](CCCCN)C(=O)N[C@@H](CC(=O)O)C(=O)N[C@@H](CC(=O)O)C(=O)N[C@@H](CC(=O)O)C(=O)N[C@@H](CC(=O)O)C(=O)N[C@@H](CCCCN)C(N)=O	FGFR1	binding, BLI	–	> 10000 nM
CC[C@H](C)[C@H](NC(=O)[C@H](Cc1c[nH]cn1)NC(=O)[C@H](CCCCNC(=O)[C@@H](NC(=O)[C@H](CCCCN)NC(=O)CSC[C@H](NC(=O)[C@H](Cc1ccccc1)NC(=O)[C@H](CCCCNC(=O)[C@H](CC(C)C)NC(=O)[C@@H]1CCCN1C(=O)[C@H](CCCCN)NC(=O)c1ccc(O[C@@H]2O[C@H](CO)[C@H](O)[C@H](O)[C@H]2O)cc1)NC(=O)[C@H](CC(C)C)NC(=O)[C@@H]1CCCN1C(=O)[C@H](CCCCN)NC(=O)C[C@@H]1O[C@@H](C)[C@@H](O)[C@@H](O)[C@@H]1O)C(N)=O)[C@@H](C)CC)NC(=O)[C@@H](NC(=O)[C@H](CCCCN)NC(=O)CSC[C@H](NC(=O)[C@H](Cc1ccccc1)NC(=O)[C@H](CCCCNC(=O)[C@H](CC(C)C)NC(=O)[C@@H]1CCCN1C(=O)[C@H](CCCCN)NC(=O)c1ccc(O[C@@H]2O[C@H](CO)[C@H](O)[C@H](O)[C@H]2O)cc1)NC(=O)[C@H](CC(C)C)NC(=O)[C@@H]1CCCN1C(=O)[C@H](CCCCN)NC(=O)C[C@@H]1O[C@@H](C)[C@@H](O)[C@@H](O)[C@@H]1O)C(N)=O)[C@@H](C)CC)C(N)=O	lecB	binding, ITC	pH 7.5	276 nM
CC[C@H](C)[C@H](NC(=O)[C@H](CS)NC(=O)[C@H](CCC(N)=O)NC(=O)[C@H](CC(C)C)NC(=O)[C@H](CCCCN)NC(=O)[C@H](CCCNC(=N)N)NC(=O)[C@H](C)NC(=O)[C@@H](NC(=O)[C@H](CCC(N)=O)NC(=O)[C@@H](NC(=O)[C@H](CCC(=O)O)NC(=O)[C@H](C)NC(=O)[C@H](CCC(N)=O)NC(=O)[C@@H](N)Cc1c[nH]cn1)C(C)C)[C@@H](C)CC)C(=O)N[C@@H](C)C(=O)N[C@@H](CC(=O)O)C(=O)N[C@@H](CCC(N)=O)C(=O)N[C@@H](Cc1ccccc1)C(=O)N[C@@H](Cc1c[nH]cn1)C(=O)N[C@@H](CCCNC(=N)N)C(=O)N[C@@H](CC(C)C)C(=O)N[C@@H](Cc1c[nH]cn1)C(=O)N[C@H](C(=O)N[C@@H](CCC(N)=O)C(=O)N[C@@H](CCC(N)=O)C(=O)O)C(C)C	BCL2L1 (Homo sapiens, UniProt Q07817, R100A)	fluorescence polarization	fluorescently labelled compound	> 100000 nM
C[C@H](N)C(=O)N[C@@H](CCCNC(=N)N)C(=O)N[C@H](C(=O)N[C@@H](CCCC[N+](C)(C)C)C(=O)N[C@@H](CCC(N)=O)C(=O)N[C@H](C(=O)N[C@@H](C)C(=O)N[C@@H](CCCNC(=N)N(C)C)C(=O)N[C@@H](CCCCN)C(=O)N[C@@H](CO)C(=O)O)[C@@H](C)O)[C@@H](C)O	Spindlin-1 (SPIN1, Homo sapiens, UniProt Q9Y657)	binding, ITC	pH 7.5	45 nM
CC(C)C[C@H](NC(=O)[C@@H](NC(=O)[C@H](C)NC(=O)[C@H](CCCNC(=N)N)NC(=O)[C@H](CC(=O)O)NC(=O)[C@H](CC(=O)O)NC(=O)[C@H](Cc1ccc(O)cc1)NC(=O)[C@H](CCCNC(=N)N)NC(=O)[C@H](Cc1c[nH]cn1)NC(=O)[C@@H](N)CC(C)C)[C@@H](C)O)C(=O)N[C@@H](C)C(=O)N[C@@H](CC(N)=O)C(=O)O	Gamma-enolase (ENO2, Homo sapiens, UniProt P09104)	biolayer interferometry	–	29 nM
CC[C@H](C)[C@H](NC(=O)[C@H](CCC(=O)O)NC(=O)[C@H](CCC(=O)O)NC(=O)[C@H](CC(C)C)NC(=O)[C@H](CC(C)C)NC(=O)[C@]1(C)CCCC=CCCC[C@](C)(NC(=O)[C@H](CCCNC(=N)N)NC(=O)[C@H](CC(N)=O)NC(=O)[C@H](CCC(=O)O)NC(=O)[C@@H]2CCCN2C(=O)[C@H](CC(=O)O)NC(=O)[C@H](CC(N)=O)NC(=O)[C@H](CC(=O)O)NC(=O)[C@H](CC(=O)O)NC(=O)[C@@H](N)CO)C(=O)N[C@@H](C)C(=O)N[C@@H](CCCCN)C(=O)N[C@@H](CCCCN)C(=O)N1)C(=O)N[C@@H](CCCCN)C(=O)N[C@@H](C)C(=O)N[C@@H](CC(N)=O)C(=O)N[C@@H](CC(C)C)C(=O)N[C@@H](CO)C(=O)O	Death domain-associated protein 6, residues 55-144 (Homo sapiens, UniProt Q9UER7)	isothermal titration calorimetry	pH 7.5, 25 °C	50 nM
CC[C@H](C)[C@H](NC(=O)[C@H](CCCNC(=N)N)NC(=O)[C@H](CO)NC(=O)[C@@H](NC(=O)[C@H](CC(=O)O)NC(=O)[C@H](CC(=O)O)NC(=O)CCCCCNC(=O)c1ccc2c(c1)C(=O)OC21c2ccc(O)cc2Oc2cc(O)ccc21)[C@@H](C)O)C(=O)N[C@@H](CCC(=O)O)C(=O)N[C@@H](CCC(=O)O)C(=O)N[C@H](C(=O)N[C@@H](CC(=O)O)C(=O)O)C(C)C	STIP1 (Homo sapiens, UniProt P31948)	binding, FP	pH 7.4	> 25000 nM
CSCC[C@H](NC(C)=O)C(=O)N[C@@H](CCC(N)=O)C(=O)N[C@H](C(=O)N[C@H]1CSCc2cccc(c2)CSC[C@@H](C(=O)NCC(=O)N[C@@H](Cc2ccc(O)cc2)C(=O)NCC(=O)N[C@@H](CO)C(=O)NCC(=O)N[C@@H](CO)C(=O)NCC(=O)N[C@@H](CO)C(=O)N[C@@H](CC(=O)O)C(=O)N[C@@H](Cc2ccc(O)cc2)C(=O)N[C@@H](CCCCN)C(=O)N[C@@H](CC(=O)O)C(=O)N[C@@H](CC(=O)O)C(=O)N[C@@H](CC(=O)O)C(=O)N[C@@H](CC(=O)O)C(=O)N[C@@H](CCCCN)C(N)=O)NC(=O)[C@H](CC(C)C)NC(=O)[C@H](C(C)C)NC(=O)[C@H](CC(C)C)NC(=O)[C@H](Cc2c[nH]cn2)NC(=O)[C@H](CCC(=O)O)NC(=O)[C@H](CCCCN)NC(=O)[C@H](Cc2ccccc2)NC(=O)[C@H]([C@@H](C)O)NC1=O)[C@@H](C)O	FGFR1	binding, BLI	–	> 10000 nM
CC(C)C[C@H](NC(=O)[C@@H]1CCCN1C(=O)[C@H](CCCCN)NC(=O)C[C@@H]1O[C@@H](C)[C@@H](O)[C@@H](O)[C@@H]1O)C(=O)N[C@@H](CCCCNC(=O)[C@H](CC(C)C)NC(=O)[C@@H]1CCCN1C(=O)[C@H](CCCCN)NC(=O)c1ccc(O[C@@H]2O[C@H](CO)[C@H](O)[C@H](O)[C@H]2O)cc1)C(=O)N[C@@H](Cc1ccccc1)C(=O)N[C@@H](CS)C(N)=O	lecB	binding, ITC	pH 7.5	2630 nM
CC[C@H](C)[C@H](NC(=O)CNC(C)=O)C(=O)N[C@@H](CCCNC(=N)N)C(=O)N[C@@H](CCC(=O)O)C(=O)N[C@@H](C)C(=O)N[C@H](C(=O)N[C@@H](CC(C)C)C(=O)N[C@@H](CCCNC(=N)N)C(=O)N[C@@H](C)C(=O)N[C@@H](Cc1c[nH]c2ccccc12)C(=O)N[C@@H](CCC(=O)O)C(=O)N[C@@H](CCCNC(=N)N)C(=O)N[C@@H](CCCNC(=N)N)C(=O)N[C@@H](Cc1ccc(O)cc1)C(=O)NCC(N)=O)[C@@H](C)O	Antirepressor protein CarS (carS, Myxococcus xanthus, UniProt Q06911)	ITC	pH 7.5, 25 °C	300 ± 50 nM
O=C(O)CN(CCN(CC(=O)O)CC(=O)Nc1ccc([As](O)O)cc1)CC(=O)Nc1ccc([As](O)O)cc1	Protein disulfide-isomerase, reduced (P4HB, Homo sapiens, UniProt P07237)	binding, absorbance titration	pH 7.5, 25 °C	54 ± 29 nM

Excerpt of the above:
SMILES	target	assay	conditions	Kd
CC[C@H](C)[C@H](NC(=O)[C@H](CCC(=O)O)NC(=O)[C@H](CCC(=O)O)NC(=O)[C@H](CC(C)C)NC(=O)[C@H](CC(C)C)NC(=O)[C@]1(C)CCCC=CCCC[C@](C)(NC(=O)[C@H](CCCNC(=N)N)NC(=O)[C@H](CC(N)=O)NC(=O)[C@H](CCC(=O)O)NC(=O)[C@@H]2CCCN2C(=O)[C@H](CC(=O)O)NC(=O)[C@H](CC(N)=O)NC(=O)[C@H](CC(=O)O)NC(=O)[C@H](CC(=O)O)NC(=O)[C@@H](N)CO)C(=O)N[C@@H](C)C(=O)N[C@@H](CCCCN)C(=O)N[C@@H](CCCCN)C(=O)N1)C(=O)N[C@@H](CCCCN)C(=O)N[C@@H](C)C(=O)N[C@@H](CC(N)=O)C(=O)N[C@@H](CC(C)C)C(=O)N[C@@H](CO)C(=O)O	Death domain-associated protein 6, residues 55-144 (Homo sapiens, UniProt Q9UER7)	isothermal titration calorimetry	pH 7.5, 25 °C	50 nM
CC[C@H](C)[C@H](NC(=O)[C@H](CCCNC(=N)N)NC(=O)[C@H](CO)NC(=O)[C@@H](NC(=O)[C@H](CC(=O)O)NC(=O)[C@H](CC(=O)O)NC(=O)CCCCCNC(=O)c1ccc2c(c1)C(=O)OC21c2ccc(O)cc2Oc2cc(O)ccc21)[C@@H](C)O)C(=O)N[C@@H](CCC(=O)O)C(=O)N[C@@H](CCC(=O)O)C(=O)N[C@H](C(=O)N[C@@H](CC(=O)O)C(=O)O)C(C)C	STIP1 (Homo sapiens, UniProt P31948)	binding, FP	pH 7.4	> 25000 nM
CSCC[C@H](NC(C)=O)C(=O)N[C@@H](CCC(N)=O)C(=O)N[C@H](C(=O)N[C@H]1CSCc2cccc(c2)CSC[C@@H](C(=O)NCC(=O)N[C@@H](Cc2ccc(O)cc2)C(=O)NCC(=O)N[C@@H](CO)C(=O)NCC(=O)N[C@@H](CO)C(=O)NCC(=O)N[C@@H](CO)C(=O)N[C@@H](CC(=O)O)C(=O)N[C@@H](Cc2ccc(O)cc2)C(=O)N[C@@H](CCCCN)C(=O)N[C@@H](CC(=O)O)C(=O)N[C@@H](CC(=O)O)C(=O)N[C@@H](CC(=O)O)C(=O)N[C@@H](CC(=O)O)C(=O)N[C@@H](CCCCN)C(N)=O)NC(=O)[C@H](CC(C)C)NC(=O)[C@H](C(C)C)NC(=O)[C@H](CC(C)C)NC(=O)[C@H](Cc2c[nH]cn2)NC(=O)[C@H](CCC(=O)O)NC(=O)[C@H](CCCCN)NC(=O)[C@H](Cc2ccccc2)NC(=O)[C@H]([C@@H](C)O)NC1=O)[C@@H](C)O	FGFR1	binding, BLI	–	> 10000 nM
